# Results pooled from the literature.
# Lines come from different studies, so protocols differ. ± marks the error that the study gave.
# Target: Kappa-type opioid receptor (OPRK1, Homo sapiens, UniProt P41145)
Structure (SMILES),test,test system,conditions,how to read,measurement,result
"O=C(Cc1ccc(Cl)c(Cl)c1)N1CCN(Cc2ccon2)[C@@H]2COC[C@H](N3CCCC3)[C@H]21 (single isomer, unassigned)","β-arrestin-2 recruitment, agonist",U2OS,1.5 h,baseline: U-69593 maximal response,Emax,75 ± 40.5%
C/C(=N\OCCCN1CCCCC1)c1ccc(C(F)(F)F)cc1,"antagonist, cAMP",,10 µM,,inhibition,7.57%
Cc1cc(-c2ccc3ccccc3c2)nnc1NCCN1CCN(C)CC1,antagonist,,concentration not given,,antagonist activity,negative
C[C@H](NCc1ccc(-c2ccc(C(F)(F)F)cc2)cc1)C(N)=O,"radioligand binding, SafetyScreen panel",,"1 µM, species human, together with: 0.60 nM [3H]Diprenorphine",,inhibition,-1%
CN(C)[C@H]1COC[C@H]2NCCN(C(=O)Cc3ccc(Cl)c(Cl)c3)[C@@H]21 (relative stereo),agonist,,0.3333 h,,Emax,71%
CCN(CC)CCOc1ccc(-c2nnn(Cc3ccc(OC)cc3)c2N)cc1,radioligand binding,HEK293,"10 µM, safety profiling",,inhibition,7.52%
Cc1cc(Nc2nc(C[C@@]3(C(=O)O)CCN(Cc4cccc(Cl)c4F)[C@H](C)C3)cc(C)c2F)[nH]n1,agonist,,10 µM,,activation,0.23%
CN[C@@H]1[C@H](O)[C@H](NC)[C@H]2O[C@]3(O)[C@H](O[C@@H]2[C@H]1O)O[C@H](C)C[C@H]3NC(=O)Cc1cc(Cl)ccn1,"ligand displacement, radioligand",,10 µM,,inhibition,5%
O=C(Cc1ccc(Cl)c(Cl)c1)N1CCNC2COCC(N3CCCC3)C21 (stereo not shown),agonist,,0.3333 h,,Emax,96%
CN1CC[C@@]23c4c5ccc(O)c4C[C@@H]2[C@H](O)C=C[C@@H]3[C@@H]1C5,"receptor activation, agonist, cell-based",,,,Emax,79 ± 12%

# Repeated from above:
Structure (SMILES),test,test system,conditions,how to read,measurement,result
"O=C(Cc1ccc(Cl)c(Cl)c1)N1CCN(Cc2ccon2)[C@@H]2COC[C@H](N3CCCC3)[C@H]21 (single isomer, unassigned)","β-arrestin-2 recruitment, agonist",U2OS,1.5 h,baseline: U-69593 maximal response,Emax,75 ± 40.5%
CN[C@@H]1[C@H](O)[C@H](NC)[C@H]2O[C@]3(O)[C@H](O[C@@H]2[C@H]1O)O[C@H](C)C[C@H]3NC(=O)Cc1cc(Cl)ccn1,"ligand displacement, radioligand",,10 µM,,inhibition,5%
